# Measurements from different studies.
# The chains behind the UniProt entries cited, without tags or fusion partners. Where a name states a change or a piece, a line headed by the entry shows the natural chain unless it says otherwise. Residues count along the entry.
# UniProt P45983, 1-384 isoform 3: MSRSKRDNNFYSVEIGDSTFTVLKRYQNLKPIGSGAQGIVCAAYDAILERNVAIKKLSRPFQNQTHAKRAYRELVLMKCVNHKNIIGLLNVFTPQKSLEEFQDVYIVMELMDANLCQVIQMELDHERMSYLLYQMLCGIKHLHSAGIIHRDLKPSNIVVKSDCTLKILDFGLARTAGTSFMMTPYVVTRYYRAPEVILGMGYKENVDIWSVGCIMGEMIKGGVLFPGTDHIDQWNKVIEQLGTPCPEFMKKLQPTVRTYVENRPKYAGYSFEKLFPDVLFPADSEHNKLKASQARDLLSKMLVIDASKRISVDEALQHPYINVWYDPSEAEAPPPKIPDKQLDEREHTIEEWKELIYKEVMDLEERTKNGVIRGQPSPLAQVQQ
# UniProt P0A6K3, whole entry: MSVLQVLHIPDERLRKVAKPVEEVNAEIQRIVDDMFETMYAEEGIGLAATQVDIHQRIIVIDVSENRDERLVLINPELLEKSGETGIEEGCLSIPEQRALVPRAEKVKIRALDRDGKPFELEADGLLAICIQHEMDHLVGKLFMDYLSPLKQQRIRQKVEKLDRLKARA
# UniProt Q9VNB5, whole entry: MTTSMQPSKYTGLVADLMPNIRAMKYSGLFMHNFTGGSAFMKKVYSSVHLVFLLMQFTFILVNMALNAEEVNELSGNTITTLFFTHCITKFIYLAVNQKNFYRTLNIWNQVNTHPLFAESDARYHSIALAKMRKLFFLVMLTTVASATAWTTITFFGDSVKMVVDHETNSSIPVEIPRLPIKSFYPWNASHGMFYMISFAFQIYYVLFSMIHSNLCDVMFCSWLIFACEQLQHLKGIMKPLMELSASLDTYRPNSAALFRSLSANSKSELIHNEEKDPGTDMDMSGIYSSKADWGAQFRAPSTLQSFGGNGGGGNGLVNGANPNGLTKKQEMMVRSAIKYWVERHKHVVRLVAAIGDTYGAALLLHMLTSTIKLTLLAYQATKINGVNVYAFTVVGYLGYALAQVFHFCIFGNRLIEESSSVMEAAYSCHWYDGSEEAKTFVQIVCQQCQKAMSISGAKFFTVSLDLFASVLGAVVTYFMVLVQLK
# UniProt Q8RLA6, 21-275 limits assumed: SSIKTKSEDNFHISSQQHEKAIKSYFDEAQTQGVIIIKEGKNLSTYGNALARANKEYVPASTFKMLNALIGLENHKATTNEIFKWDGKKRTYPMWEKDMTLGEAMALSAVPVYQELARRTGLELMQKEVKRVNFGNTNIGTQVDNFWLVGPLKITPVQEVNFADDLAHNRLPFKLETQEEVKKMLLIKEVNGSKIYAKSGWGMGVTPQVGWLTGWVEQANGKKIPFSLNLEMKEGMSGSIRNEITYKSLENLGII
# UniProt P02769, 25-607 limits assumed: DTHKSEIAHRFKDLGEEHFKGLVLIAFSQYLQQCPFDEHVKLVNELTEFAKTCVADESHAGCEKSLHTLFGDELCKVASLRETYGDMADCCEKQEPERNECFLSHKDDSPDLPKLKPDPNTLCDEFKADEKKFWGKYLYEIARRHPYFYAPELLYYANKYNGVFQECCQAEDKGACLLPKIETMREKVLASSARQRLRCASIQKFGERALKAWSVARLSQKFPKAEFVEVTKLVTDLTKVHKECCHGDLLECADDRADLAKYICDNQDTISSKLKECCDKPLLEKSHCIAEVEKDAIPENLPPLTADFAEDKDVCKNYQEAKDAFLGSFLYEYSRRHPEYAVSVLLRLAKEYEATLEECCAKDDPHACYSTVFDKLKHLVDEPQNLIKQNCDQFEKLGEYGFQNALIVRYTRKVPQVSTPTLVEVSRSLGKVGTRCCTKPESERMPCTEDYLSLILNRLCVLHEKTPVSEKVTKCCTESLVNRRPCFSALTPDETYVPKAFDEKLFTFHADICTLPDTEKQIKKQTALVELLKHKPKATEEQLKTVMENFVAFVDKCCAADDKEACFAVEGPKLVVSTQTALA
# UniProt Q05769, 18-604 limits assumed: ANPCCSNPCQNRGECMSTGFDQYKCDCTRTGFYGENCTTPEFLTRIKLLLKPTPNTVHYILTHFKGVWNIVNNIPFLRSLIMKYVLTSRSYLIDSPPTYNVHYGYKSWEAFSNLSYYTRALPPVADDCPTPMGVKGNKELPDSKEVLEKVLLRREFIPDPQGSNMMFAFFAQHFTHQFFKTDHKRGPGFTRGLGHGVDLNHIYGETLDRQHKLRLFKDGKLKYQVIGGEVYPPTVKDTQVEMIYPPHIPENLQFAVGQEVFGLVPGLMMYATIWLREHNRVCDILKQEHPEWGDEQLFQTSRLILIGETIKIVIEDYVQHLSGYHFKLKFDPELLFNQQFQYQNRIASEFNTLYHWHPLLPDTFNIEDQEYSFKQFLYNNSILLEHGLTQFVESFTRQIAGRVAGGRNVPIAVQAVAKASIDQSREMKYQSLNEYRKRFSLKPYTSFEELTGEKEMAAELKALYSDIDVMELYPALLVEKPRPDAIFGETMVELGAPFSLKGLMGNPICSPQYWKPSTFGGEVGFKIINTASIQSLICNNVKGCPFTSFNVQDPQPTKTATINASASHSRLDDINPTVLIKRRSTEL
# UniProt P35372, whole entry: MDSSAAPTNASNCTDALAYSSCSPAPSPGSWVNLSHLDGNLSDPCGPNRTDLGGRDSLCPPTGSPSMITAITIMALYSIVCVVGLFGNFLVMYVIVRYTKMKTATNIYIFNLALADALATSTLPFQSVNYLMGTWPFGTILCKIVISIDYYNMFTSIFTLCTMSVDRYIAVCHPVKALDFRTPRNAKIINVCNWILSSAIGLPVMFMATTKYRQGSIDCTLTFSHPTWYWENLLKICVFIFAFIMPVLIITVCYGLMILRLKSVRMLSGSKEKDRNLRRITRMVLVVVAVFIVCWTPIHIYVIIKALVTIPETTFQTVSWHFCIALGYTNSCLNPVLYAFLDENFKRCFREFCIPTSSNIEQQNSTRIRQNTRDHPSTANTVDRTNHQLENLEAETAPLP
# Protocols differ between the studies behind these lines.
# MAPK8: Mitogen-activated protein kinase 8 (MAPK8, Homo sapiens, UniProt P45983)
SMILES,target or system,assay,system,conditions,scale,measurement,value
Nc1nnc(SSc2nnc(N)s2)s1,"Peptide deformylase (def, Escherichia coli, UniProt P0A6K3)",binding,,,,isomerization share of ΔG,> 40%
COC(=O)[C@@]1(C)C=C(C(=O)Nc2cc(C(=O)Nc3ccc(Nc4nccc(-c5cccnc5)n4)cc3)ccc2C)C(=O)CC1,MAPK8,"kinase activity, inhibitor",,"0.1829 µM, unit not given, added: 10 mM GSH",baseline: DMSO,remaining activity,0.147
NC[C@@H](NC[C@@H]1CCCN1C[C@@H](CO)NC[C@@H](NCCC1CC2CCC1C2)c1ccccc1)c1ccccc1 (stereo partly drawn),Klebsiella pneumoniae,bacterial growth,,compound alone,,IC90,> 24 µM
CCn1c(SCC(=O)Nc2ccc(C(C)C)cc2)nnc1-c1cncs1,"Orco (Drosophila melanogaster, UniProt Q9VNB5)","calcium mobilization, agonist",HEK293 expressing Drosophila Orco,,baseline: VUAA1,efficacy,36%
COC(=O)[C@@]1(C)C=C(C(=O)Nc2ccc(C)c(C(=O)Nc3ccc(Nc4nccc(-c5cccnc5)n4)cc3)c2)C(=O)CC1,MAPK8,"kinase activity, inhibitor",,"4.938 µM, unit not given, added: 10 mM GSH",baseline: DMSO,remaining activity,0.0495
O=S(=O)(O)c1ccc2c(c1)Cc1cc(S(=O)(=O)O)ccc1-2,"Beta-lactamase (blaOXA-33, Acinetobacter baumannii, UniProt Q8RLA6)","enzyme activity, inhibitor",,,,ligand efficiency,0.29
COC(=O)[C@@H](CS)N1C(=O)c2ccc(N(C)C)cc2C1=O,"Albumin (ALB, Bos taurus, UniProt P02769)",probe,,"10 µM, probe:protein 1:3",baseline: probe alone,fluorescence increase,3 fold
COc1ccc2c(c1)c(CC(=O)NCCCCNC(=O)CCC(=O)OC1c3cc4c(cc3C(c3cc(OC)c(OC)c(OC)c3)C3C(=O)OCC13)OCO4)c(C)n2C(=O)c1ccc(Cl)cc1 (stereo not drawn),"Ptgs2 (Mus musculus, UniProt Q05769)",time-dependent inhibitor,,37 °C,,k-2 reverse rate constant,0.0017 s⁻¹
Cc1ccc(S(=O)(=O)Nc2cccc(C(=O)NC3CCN(c4ncnc5[nH]cnc45)CC3)c2)cc1Cl,A549-ACE2,,,7.407 µM,,viability,96.6%
COc1ccc(CN[C@@H]2CO[C@H](C(c3ccccc3)c3ccccc3)C[C@H]2O)cc1,"OPRM1 (Homo sapiens, UniProt P35372)",radioligand binding,,"10 µM, added: [3H]diprenorphine",,inhibition,48.8%
Cc1ccccc1S(=O)(=O)Nc1cccc(C(=O)NC2CCN(c3ncnc4[nH]cnc34)CC2)c1,A549-ACE2,,,0.01016 µM,,viability,100%
NC[C@@H](NC[C@@H]1CCCN1C[C@@H](CO)NC[C@@H](NCCC12CC3CC(CC(C3)C1)C2)c1ccccc1)c1ccccc1,Acinetobacter baumannii,bacterial growth,,"16 µM, fold shift of IC50, added: amikacin",,potentiation of amikacin,10.9 fold
